Measured values gathered from unrelated publications.
Each numbered part is a random draw from the data of one study; scales do not carry over between parts. Several values in a cell are separate wells, animals, samples, runs or records.

Block 1 — cell line: HEK-293T; effect on: pseudovirus infection; technique: FDA-approved drug library screen; organism: VSV pseudotyped with SARS-CoV-2 spike; concentration: 10 µM; time: 16 h; baseline: vehicle-treated
For `COc1ccc(C(=O)c2ccccc2)c(O)c1`, the GFP-positive cells was 104%.
The GFP-positive cells of `CC(=O)NCCCS(=O)(=O)O` is reported as 105%.
For `C[C@]12C=CC(=O)C=C1CC[C@@H]1[C@@H]2[C@@H](O)C[C@@]2(C)[C@H]1CC[C@]2(O)C(=O)CO`, the GFP-positive cells was 74.4%.
The GFP-positive cells of `CCC[C@H](N[C@@H](C)C(=O)N1[C@H](C(=O)O)C[C@@H]2CCCC[C@@H]21)C(=O)OCC` is reported as 74.6%.

Block 2 — technique: protein-binding microarray; form: double-stranded DNA, one strand shown; sample: in vitro; concentration: 2540 nM top; setting: 60-bp whole probe; added: salmon DNA 0.4 mg/ml; baseline: random background probes; reading: higher = stronger binding; shared flanks, not repeated: GCCTAGCAC … GTCTTGATTCGCTTGACGCTGCTG
Target: Interferon regulatory factor 3, full length, phosphomimetic (IRF3, Homo sapiens, UniProt Q14653, residues 1-427, S386D/S396D/S398D/S402D/T404D/S405D)
Target sequence (chain): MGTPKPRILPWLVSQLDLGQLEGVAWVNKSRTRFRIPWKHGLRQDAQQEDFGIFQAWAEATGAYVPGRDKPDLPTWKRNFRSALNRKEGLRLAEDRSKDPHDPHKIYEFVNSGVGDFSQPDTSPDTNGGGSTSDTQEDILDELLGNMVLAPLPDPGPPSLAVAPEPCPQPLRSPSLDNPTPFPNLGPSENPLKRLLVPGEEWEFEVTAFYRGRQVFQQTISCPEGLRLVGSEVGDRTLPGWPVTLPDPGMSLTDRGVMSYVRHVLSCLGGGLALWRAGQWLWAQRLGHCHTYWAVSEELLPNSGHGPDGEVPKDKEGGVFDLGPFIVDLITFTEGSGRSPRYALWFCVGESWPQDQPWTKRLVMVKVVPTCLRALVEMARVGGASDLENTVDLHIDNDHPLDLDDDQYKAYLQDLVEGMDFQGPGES
For `TTAGGACTGGGACTTGGTTAGTGCTAG`, “fitted relative affinity” read -0.831 z-score.
`TCACATATATATATGAAACTGTGCTAG` — result for “fitted relative affinity”: 0.64 z-score.
Under “fitted relative affinity”, `GACGGTATCGGTCTCGGGAGGTGCTAG` is recorded as 4.48 z-score.
`TTAGGACTGCACTTTCGGTTAGTGCTA`: “fitted relative affinity” 1.91 z-score.
For `GACGGTATCGGGACTGGGGAGGTGCTA`, “fitted relative affinity” read 1.66 z-score.
`GACGGTTTCCTTTCCCGGACGTGCTAG` — result for “fitted relative affinity”: 10.1 z-score.
For `GACGGTCTCCTACTGGTGACGTGCTAG`, “fitted relative affinity” read 0.968 z-score.
For `GACGATTTCAGTATCGAGAGGTGCTAG`, “fitted relative affinity” read 1.99 z-score.

Block 3 — effect on: enzyme activity; action: inhibitor; concentration: 20 µM; setting: hit confirmation
Target: Replicase polyprotein 1ab, main protease (rep, Severe acute respiratory syndrome coronavirus 2, UniProt P0DTD1)
The inhibition of `COc1nc2ccc(Br)cc2cc1[C@@H](c1ccccc1)[C@@](O)(CCN(C)C)c1cccc2ccccc12` is reported as 63.6% and 95.7%.
The inhibition of `Cc1nc(=O)c2c([nH]1)CCSC2` is reported as 35.8%.
`O=[N+]([O-])c1ccc(Sc2cccc[n+]2[O-])c2nonc12` gave an inhibition of 111%.

Block 4 — technique: competition protein-binding microarray; form: double-stranded DNA, one strand shown; sample: in vitro; concentration: 2 µM; added: Cbf1 competitor, 0.05 µM; reading: higher = stronger binding
Target: Phosphate system positive regulatory protein PHO4, full length, GST-tagged (PHO4, Saccharomyces cerevisiae, UniProt P07270, residues 1-312)
Setting: whole 60-bp probe, lowest competitor level
Target sequence (chain): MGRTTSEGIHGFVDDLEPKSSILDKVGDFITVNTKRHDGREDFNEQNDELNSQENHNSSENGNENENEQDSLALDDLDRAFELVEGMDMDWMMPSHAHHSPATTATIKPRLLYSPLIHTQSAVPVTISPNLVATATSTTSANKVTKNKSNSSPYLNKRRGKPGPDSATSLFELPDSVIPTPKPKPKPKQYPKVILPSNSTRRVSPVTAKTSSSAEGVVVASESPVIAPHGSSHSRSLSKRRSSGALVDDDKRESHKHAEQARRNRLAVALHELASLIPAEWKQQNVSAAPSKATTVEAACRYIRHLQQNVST
With `CTACCACCACCAACACACGTTACACCACAACAACAGGTCTTGATTCGCTTGACGCTGCTG` the fluorescence intensity was 10500 a.u.
`CGGGGTTAAGTTTTTCACGTGTGATGCTTGCAGCAGGTCTTGATTCGCTTGACGCTGCTG` has a fluorescence intensity of 12400 a.u.
With `CTAACGAAGGTTTGGGTGGTGGGTGACAAGCCAAGTGTCTTGATTCGCTTGACGCTGCTG` the fluorescence intensity was 4280 a.u.
`ACCGGTTGATGTACTAACGTGACGAACAGTTTCATCGTCTTGATTCGCTTGACGCTGCTG` gave a fluorescence intensity of 7340 a.u.

Block 5 — technique: universal PBM; form: double-stranded DNA, one strand shown; sample: in vitro; concentration: 600 nM; reading: higher = stronger binding
Target: Sal-like protein 4, full length isoform A (SALL4, Homo sapiens, UniProt Q9UJQ4, residues 1-1053)
UniProt Q9UJQ4, sequence (whole entry, looked up): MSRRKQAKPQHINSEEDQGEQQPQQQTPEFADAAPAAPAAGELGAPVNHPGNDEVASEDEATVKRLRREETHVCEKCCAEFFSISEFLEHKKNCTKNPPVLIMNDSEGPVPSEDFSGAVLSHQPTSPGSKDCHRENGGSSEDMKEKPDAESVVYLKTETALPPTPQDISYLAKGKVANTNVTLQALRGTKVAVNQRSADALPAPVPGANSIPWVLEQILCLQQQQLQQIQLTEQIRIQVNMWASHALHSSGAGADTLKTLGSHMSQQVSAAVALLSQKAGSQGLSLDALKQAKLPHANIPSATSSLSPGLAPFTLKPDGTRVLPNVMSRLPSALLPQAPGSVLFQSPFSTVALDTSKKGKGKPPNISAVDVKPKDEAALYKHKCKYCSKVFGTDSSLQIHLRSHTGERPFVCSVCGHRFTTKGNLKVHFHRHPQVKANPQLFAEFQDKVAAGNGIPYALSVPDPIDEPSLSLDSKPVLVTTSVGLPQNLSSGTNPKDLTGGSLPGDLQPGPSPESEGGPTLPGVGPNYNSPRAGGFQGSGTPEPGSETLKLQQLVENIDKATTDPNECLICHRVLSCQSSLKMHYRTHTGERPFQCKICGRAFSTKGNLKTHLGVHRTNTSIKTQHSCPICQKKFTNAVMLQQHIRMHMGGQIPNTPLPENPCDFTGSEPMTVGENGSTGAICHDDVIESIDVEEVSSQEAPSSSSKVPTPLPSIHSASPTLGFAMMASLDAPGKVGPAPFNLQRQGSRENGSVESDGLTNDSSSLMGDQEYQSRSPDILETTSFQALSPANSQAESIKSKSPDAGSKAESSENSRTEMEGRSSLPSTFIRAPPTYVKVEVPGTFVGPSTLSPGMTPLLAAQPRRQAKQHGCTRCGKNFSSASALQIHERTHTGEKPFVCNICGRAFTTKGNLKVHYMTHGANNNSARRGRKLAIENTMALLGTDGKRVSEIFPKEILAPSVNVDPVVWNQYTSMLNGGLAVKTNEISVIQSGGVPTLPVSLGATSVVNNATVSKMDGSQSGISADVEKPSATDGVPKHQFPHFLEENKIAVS
Setting: 8-mer, flanks averaged, mean of replicates
`TATAAGGA` has an E-score of 0.283.
The E-score of `GTGCAAAC` is reported as -0.0714.
The E-score of `AAGACACC` is reported as -0.133.
`TAGGCCCA` gave an E-score of -0.198.
For `CGGCTCCA`, the E-score was -0.277.
With `GACCGGCC` the E-score was -0.38.
With `ATGAGGAG` the E-score was 0.0566.
With `ATAGTGTC` the E-score was 0.0965.

Block 6 — technique: RNA Bind-n-Seq; form: RNA; sample: in vitro; concentration: 1 µM; setting: whole 134-nt RNA, ends assumed; added: 150 mM KCl; baseline: input library; reading: higher = stronger binding
Target: Ras GTPase-activating protein-binding protein 1, C-terminal RGG region (G3BP1, Homo sapiens, UniProt Q13283)
UniProt Q13283, sequence (whole entry, looked up): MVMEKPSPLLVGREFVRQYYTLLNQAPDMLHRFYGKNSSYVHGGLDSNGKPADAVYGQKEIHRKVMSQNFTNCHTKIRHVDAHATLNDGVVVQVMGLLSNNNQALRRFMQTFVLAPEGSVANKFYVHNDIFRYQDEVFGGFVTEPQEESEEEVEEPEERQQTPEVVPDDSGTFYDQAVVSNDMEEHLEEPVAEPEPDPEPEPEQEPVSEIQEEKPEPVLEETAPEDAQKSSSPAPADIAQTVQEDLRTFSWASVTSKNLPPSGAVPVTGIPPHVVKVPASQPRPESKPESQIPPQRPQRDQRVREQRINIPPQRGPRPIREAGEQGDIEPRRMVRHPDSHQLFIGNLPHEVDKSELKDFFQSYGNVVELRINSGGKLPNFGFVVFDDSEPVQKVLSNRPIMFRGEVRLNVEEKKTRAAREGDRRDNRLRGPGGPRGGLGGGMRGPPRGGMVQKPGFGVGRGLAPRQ
Shared flanks, not repeated: GGGAGUUCUACAGUCCGACGAUC … UGGAAUUCUCGGGUGUCAAGG
For `UAACUUUAGAGGAGGAUCUGAUGGAUAUGGCAGUGGACGUGGAUUUGGGGAUGGCUAUAAUGGGCAUGGAGGAGGACCUGGAGGUGGCAA`, the log2 enrichment was -0.97.
With `UGGCCCUGGUGGCAUGCGGGGAGGAAGAGGUGGCCUCAUGGAUCGUGGUGGUCCCGGUGGAAUGGUCAGAGGUGGCCGUGGUGGAGACAG` the log2 enrichment was 3.49.
`AGUCCUGUGCUACACAUCGUAUGUACCGAAUCGGGUUUGGGUUUUUUUGGGUUUGGGAAAGUAUUAUGUUACGCCGUUCGGAUCUGCACU` has a log2 enrichment of 0.697.
`UGGGAGGUGGAUUUUGUUUAUUUUUUUAGCUCAUUUCCAGGGGUUGGAAUUUUUUUUUAAUAUGUGUCAUGAAUAAAGUUGUUUUUGAAA` gave a log2 enrichment of 2.44.
With `AAACUUUAGAGGAGGAUCUGAUGGAUAUGGCAGUGGACGUGGAUUUGGGGAUGGCUAUAAUGGGUAUGGAGGAGGACCUGGAGGUGGCAA` the log2 enrichment was -1.09.

Block 7 — action: inhibitor; concentration: 20 µM
Target: Replicase polyprotein 1ab, nsp13 helicase (rep, Severe acute respiratory syndrome coronavirus 2, UniProt P0DTD1)
`C=CCN1CCc2nc(N)sc2CC1` has an inhibition of -3.79%.
The inhibition of `C[N+]1(C)CCC(=C(c2ccccc2)c2ccccc2)CC1` is reported as -3.18%.
With `COC(=O)[C@H](CC(C)C)NC(=O)c1ccc(NC[C@@H](N)CS)cc1-c1cccc2ccccc12` the inhibition was 16.4%.
`CCn1c(=O)n(C2=C(CO)CN(CC3CCCCCCC3)CC2)c2ccccc21` gave an inhibition of 6.02%.
The inhibition of `O=C(C[C@H]1NCCC[C@@H]1O)Cn1cnc2cc(Br)c(Cl)cc2c1=O` (racemic) is reported as 3%.
`Nc1cccc(CNC(=O)c2ccc(Oc3ccc(OCc4cccc(F)c4)cc3)nc2)c1` gave an inhibition of 3.48%.
`Cc1ccccc1NC(=O)Nc1ccc(CC(=O)N(C)[C@@H](CC(C)C)C(=O)NCC[C@H](NC(=O)[C@@H]2CCCN2S(=O)(=O)c2cc(Cl)cc(Cl)c2)C(=O)O)cc1` gave an inhibition of 12.5%.
`CC(=O)Nc1ccccc1` has an inhibition of -0.64%.
`COc1ccc(COc2cc3oc(=O)c4cc(C(C)O)ccc4c3cc2OC)cc1` (stereo not drawn) has an inhibition of 5.02%.
`CCNC(=O)N1CCN(CCCC(c2ccc(F)cc2)c2ccc(F)cc2)CC1` has an inhibition of -1.67%.
For `C/C=C(/C)C(=O)O[C@H]1C(C)=C[C@]23C(=O)[C@@H](C=C(CO)[C@@H](O)[C@]12O)[C@H]1[C@@H](C[C@H]3C)C1(C)C`, the inhibition was 0.95%.
For `COc1cccc(-c2cc(F)ccc2[C@H]2Cc3nc(N)nc(C)c3C(=O)N2)n1`, the inhibition was 7.93%.
With `CC(C)c1c(NC(=O)Nc2ccc(Cl)cc2)c(=O)n(-c2ccccc2)n1C` the inhibition was 11.2%.
`C(#CCN1CCCC1)CN1CCCC1` gave an inhibition of 3.57%.
`COc1cccc(CCc2ccccc2OCC(CN(C)C)OC(=O)CCC(=O)O)c1` (stereo not drawn) has an inhibition of -2.55%.
With `Cc1ccc(OC[C@@H](O)[C@H](C)NC(C)C)c2c1CCC2` the inhibition was 4.53%.
The inhibition of `O=S1(=O)c2cccc3cccc(c23)N1CCCN1CCN(c2ccc(F)cc2)CC1` is reported as -1.29%.
For `Oc1ccc(C2CNCCc3c2cc(O)c(O)c3Cl)cc1` (stereo not drawn), the inhibition was 5.88%.
`CC(C)(C)c1ccc(-c2nc3c(N4CCN(Cc5ccc6nccnc6c5)CC4)cccc3[nH]2)cc1` has an inhibition of 11.9%.
The inhibition of `COc1cc2c(cc1OC)-c1c(C)c3ccc(OC)c(OC)c3c[n+]1CC2` is reported as 6.29%.
`CCn1c(-c2nonc2N)nc2cnc(Oc3cccc(NC(=O)c4ccc(OCCN5CCOCC5)cc4)c3)cc21` gave an inhibition of 6.57%.
The inhibition of `C[C@H](Nc1cc(NS(=O)(=O)N2CCC2)nc(SCc2cccc(F)c2F)n1)[C@@H](O)CO` is reported as 2.01%.
For `Cn1c2c(c3ccccc31)CCNCC2`, the inhibition was 8.46%.
For `CCN(CCCOc1ccc2c(Nc3cc(CC(=O)Nc4cccc(F)c4)[nH]n3)ncnc2c1)CCOP(=O)(O)O`, the inhibition was 0.27%.
For `CC[C@H](C)[C@@H]1NC(=O)[C@H](Cc2ccc(O)cc2)NC(=O)[C@@H](N)CSSC[C@@H](C(=O)N2CCC[C@H]2C(=O)N[C@@H](CC(C)C)C(=O)NCC(N)=O)NC(=O)[C@H](CC(N)=O)NC(=O)[C@H](CCC(N)=O)NC1=O`, the inhibition was -0.68%.

A few entries again (block 7):
With `CC(C)c1c(NC(=O)Nc2ccc(Cl)cc2)c(=O)n(-c2ccccc2)n1C` the inhibition was 11.2%.
`Cc1ccccc1NC(=O)Nc1ccc(CC(=O)N(C)[C@@H](CC(C)C)C(=O)NCC[C@H](NC(=O)[C@@H]2CCCN2S(=O)(=O)c2cc(Cl)cc(Cl)c2)C(=O)O)cc1` gave an inhibition of 12.5%.
For `C/C=C(/C)C(=O)O[C@H]1C(C)=C[C@]23C(=O)[C@@H](C=C(CO)[C@@H](O)[C@]12O)[C@H]1[C@@H](C[C@H]3C)C1(C)C`, the inhibition was 0.95%.
For `Oc1ccc(C2CNCCc3c2cc(O)c(O)c3Cl)cc1` (stereo not drawn), the inhibition was 5.88%.
`Nc1cccc(CNC(=O)c2ccc(Oc3ccc(OCc4cccc(F)c4)cc3)nc2)c1` gave an inhibition of 3.48%.
`CCn1c(=O)n(C2=C(CO)CN(CC3CCCCCCC3)CC2)c2ccccc21` gave an inhibition of 6.02%.
The inhibition of `COc1cc2c(cc1OC)-c1c(C)c3ccc(OC)c(OC)c3c[n+]1CC2` is reported as 6.29%.
